Published values from different studies.
Numbers after ± are the reported error.
AfsR 1-980: AfsR 1-980 (Streptomyces avermitilis)
T1: AfsR 1-980 (Streptomyces avermitilis); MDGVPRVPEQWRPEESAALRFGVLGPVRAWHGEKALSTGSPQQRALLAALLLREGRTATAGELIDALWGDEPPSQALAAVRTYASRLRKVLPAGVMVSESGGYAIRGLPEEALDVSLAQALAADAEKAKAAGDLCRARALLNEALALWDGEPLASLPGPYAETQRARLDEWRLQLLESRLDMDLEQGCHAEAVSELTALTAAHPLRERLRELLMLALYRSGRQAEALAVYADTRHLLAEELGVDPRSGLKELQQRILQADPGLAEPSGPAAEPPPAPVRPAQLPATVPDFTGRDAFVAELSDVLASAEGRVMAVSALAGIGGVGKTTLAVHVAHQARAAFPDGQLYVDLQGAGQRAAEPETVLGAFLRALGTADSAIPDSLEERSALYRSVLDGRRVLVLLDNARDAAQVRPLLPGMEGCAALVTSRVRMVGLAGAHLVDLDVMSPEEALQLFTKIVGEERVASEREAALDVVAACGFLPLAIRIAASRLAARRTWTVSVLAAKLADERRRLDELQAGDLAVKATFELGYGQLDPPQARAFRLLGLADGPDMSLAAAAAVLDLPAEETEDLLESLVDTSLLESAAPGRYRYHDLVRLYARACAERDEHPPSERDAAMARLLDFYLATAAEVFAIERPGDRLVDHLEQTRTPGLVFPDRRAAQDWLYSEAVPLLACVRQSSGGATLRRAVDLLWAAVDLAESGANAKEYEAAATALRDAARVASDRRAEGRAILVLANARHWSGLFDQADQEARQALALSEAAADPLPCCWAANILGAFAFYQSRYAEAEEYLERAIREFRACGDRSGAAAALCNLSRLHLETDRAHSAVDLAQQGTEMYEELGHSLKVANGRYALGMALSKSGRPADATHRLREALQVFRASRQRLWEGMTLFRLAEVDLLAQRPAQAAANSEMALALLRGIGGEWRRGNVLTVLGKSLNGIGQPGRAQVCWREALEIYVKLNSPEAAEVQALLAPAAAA
T2: mtrB 1-76 T49A/T52A (Alkalihalobacillus halodurans); chain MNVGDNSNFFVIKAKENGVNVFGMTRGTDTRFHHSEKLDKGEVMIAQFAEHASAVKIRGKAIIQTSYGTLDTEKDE; chain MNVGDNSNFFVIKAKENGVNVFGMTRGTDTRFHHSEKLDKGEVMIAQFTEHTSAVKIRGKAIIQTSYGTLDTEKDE
Chain of UniProt Q99VT5 (whole entry, looked up): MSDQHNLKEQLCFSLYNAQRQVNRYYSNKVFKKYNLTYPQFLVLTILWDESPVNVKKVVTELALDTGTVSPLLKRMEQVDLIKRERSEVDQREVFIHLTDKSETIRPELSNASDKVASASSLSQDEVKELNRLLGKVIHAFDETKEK

| Molecule | tested on | test | system | conditions | scale | quantity | value |
| --- | --- | --- | --- | --- | --- | --- | --- |
| insulin human | – | measured: ASS1 mRNA | EcoHIV-infected mouse, brain | i.p., dose not given | baseline: PBS | fold change | 1.28 |
| GGGCGGGGGAGACAUAUAUCACAGCCUGUCUCGUGCCCGACCCCGCCC (RNA (Hepatitis C virus); hairpin; bulge; 12 nt apical loop) | HNRNPA1 UP1 1-196 (Homo sapiens) | ITC | folded RNA | – | – | Kd | 0.243 ± 0.03 µM |
| GATTACTTTTTTGCAATTTCATATGATCAATCCCCTTTATTTTAATATGTCATTAATTATACAATTAAATGGAAAATAGTGATAATTACAAAGAAAAAAATATTGTCAAATGTAGCAATGTTGTAATACAATATAGAAACTTTTTACGAATATTTAGCATGAATTGCAATTTGTCGTGGAAAAGAAGAATAACAGATTTAAGAATGACATGGAGAAAAAAGAGGTGAGCAT (dsDNA) | mgrA full length assumed (Staphylococcus aureus, UniProt Q99VT5) | EMSA | double-stranded DNA, one strand shown | – | – | Kd | 9.2 ± 4.2 µM |
| GCGGAAGGCGGCTGACCAGAGGGCCCTGCAAGAAACCAGCATAGCGGTTTGTTTGTGGCGCCCGTCACCACTTCGCCGACGCGGTACCCCCGGAGGCCAGGCACCGGTCACTGCCGCCGCCCGCGCTGCCCGCTGCCGCCGCCGAGCCGTACCGCGCGGCTCGGGCGTCGCGCATGCCGTCAGGCCCCCGGCACCTCCCTG (dsDNA) | T1, AfsR 1-980 (Streptomyces avermitilis) | EMSA | double-stranded DNA, one strand shown | – | – | binding | no binding |
| AGTTGGCCGAAAGTGCTGTGCTCGCTGGAGAGTGCCGCGGCCTGTGCAGTCAAGGTGCTGATCATCAAGGACAGTCCAAGGGTGCTGAGGAGAGCATGTGTTTTCATCTGATCTGCCTGCTTTTATTGTTATTGGTAAGACTATTTGATCGGATTAAAGCCGATGCATGGATTTATAGCCTATAAAATGCCACTTGAAAAATAAATTGTAATACTATTTAGTAGTGCCAGCTTCACTGAAACCGGTCGATCCGCTGGATGCCTGCGAAACAGGTCGACTGGGCACGCAGGTTGGACAA (dsDNA) | LysR family transcriptional regulator 1-307 (Pseudomonas savastanoi pv. phaseolicola, UniProt Q48CZ9) | EMSA | double-stranded DNA, one strand shown | – | – | binding | binds |
| RNA 1 AACAAAACAAAAUAGCACCGUAAAGC / RNA 2 GCUUUACGGUGCUA (dsRNA; 14 bp duplex, 5' 12 nt overhang) | DEAD-box ATP-dependent RNA helicase RhpA (Pseudomonas aeruginosa, UniProt Q9HX66) | fluorescence polarization | double-stranded RNA | – | – | Kd | 0.0027 µM |
| CGTGAAACTGAACTCTCCCGAGGCCGCCGAGGTGCAGGCACTGCTGGCTCCGGCCGCCGCTGCCTGACACCGGGCAGGGCGTTCATCGTTCGTTTATCGCGGCCAGGCACTCTCTTGGTTGTCGATCCGTCGCGTCGGGGGGCAGACGGACCGCCGGTGAGGTCGCCGCACTCGCACCTTAGGGTGGGCGACTCGAGTGGCCCACCCGGCCACCCTCGGGGGAGTGGCCGGGTGGGCTCTCCACAGTTCAACGGCAATCACCATGGGGAGGCACCATCATGAGCGACATCACGAAGGAC (dsDNA) | bldD full length assumed (Streptomyces avermitilis, UniProt Q827R3) | EMSA | double-stranded DNA, one strand shown | with: c-di-GMP 60 µM | – | binding | binds |
| GTCTTTAATAATTAAACTAGTGTCTTGACAGATGTAAACAACAGGTATAAAC (dsDNA) | niaR 1-174 K97Q (Streptococcus mutans, UniProt Q8DVX8) | EMSA | double-stranded DNA, one strand shown | – | – | binding | no binding |
| TGCCGTCGCCGAACTGATCGGGAGCGAGTGCGGCGACGGGCTTCGGCCCGCGCCGCTCTCATGAGTCCGCGTCAGTTTCGCGCCCCGGCAAGGGCGACACGAACGGGTGAAGCGGGAGGCACACGTGTCCCCTGCCGTCTCCACCGGTAACCTCACACTCATGGC (dsDNA) | T1, AfsR 1-980 (Streptomyces avermitilis) | EMSA | double-stranded DNA, one strand shown | – | – | binding | no binding |
| GAGUUGAGUUGAGUUGAGUUGAGUUGAGUUGAGUUGAGUUGAGUUGAGUUGAGUU (ssRNA; single-stranded) | T2, mtrB 1-76 T49A/T52A (Alkalihalobacillus halodurans) | filter binding | RNA | with: Trp 1 mM | – | Kd | 0.029 ± 0.009 µM |

Repeated from above:
| Molecule | tested on | test | system | conditions | scale | quantity | value |
| --- | --- | --- | --- | --- | --- | --- | --- |
| CGTGAAACTGAACTCTCCCGAGGCCGCCGAGGTGCAGGCACTGCTGGCTCCGGCCGCCGCTGCCTGACACCGGGCAGGGCGTTCATCGTTCGTTTATCGCGGCCAGGCACTCTCTTGGTTGTCGATCCGTCGCGTCGGGGGGCAGACGGACCGCCGGTGAGGTCGCCGCACTCGCACCTTAGGGTGGGCGACTCGAGTGGCCCACCCGGCCACCCTCGGGGGAGTGGCCGGGTGGGCTCTCCACAGTTCAACGGCAATCACCATGGGGAGGCACCATCATGAGCGACATCACGAAGGAC (dsDNA) | bldD full length assumed (Streptomyces avermitilis, UniProt Q827R3) | EMSA | double-stranded DNA, one strand shown | with: c-di-GMP 60 µM | – | binding | binds |
